Measured values of several laboratories.
A part holds a random share of what one study measured. Changes are numbered by the printed parent chain.

Series 1 — method: RNA Bind-n-Seq; molecule type: RNA; sample: in vitro; concentration: 365 nM; baseline: no-protein control; direction: higher = stronger binding
Target: RNA binding protein fox-1 homolog 2, RRM domain, GST-SBP tag (RBFOX2, Homo sapiens, UniProt O43251-10, residues 100-194)
Notes: natural RNA segment, single round, ends assumed
Construct (chain): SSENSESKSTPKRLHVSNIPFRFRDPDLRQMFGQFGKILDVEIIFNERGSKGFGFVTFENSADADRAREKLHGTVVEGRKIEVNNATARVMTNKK
`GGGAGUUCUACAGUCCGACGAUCGGCCAGUUGGCCUUCUCACUUUGAUAGUUUAACUCAGGUACCCAGUCUUCACUCCAUCCCCAGGUGCUUGUUCACCUCAUUAAUGAGCACCUAGAGCAAGGACCAAAAGAUGGAAUUCUCGGGUGCCAA` — result for “RBNS enrichment (R)”: 0.22.
`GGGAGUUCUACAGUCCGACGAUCAUUGGAUAUUUAUGUUCACACAGGAAUUUGGUUUACUGCUUUGUAAAUAAAAGGAAAAACUCCGGGUUAUGUAUAGAUGUUCUUCAUUAUAGACAUCUUCUUUGCUUUUCUGGAAUUCUCGGGUGCCAA`: “RBNS enrichment (R)” 1.43.
For `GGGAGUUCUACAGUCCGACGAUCAACAGAGCCAUUUUAGUCUUCAUAGUUAUCUGCUAAGAGAGAUAAUGAGCUGACUGUCUAUUUUAAACUCGAAGGUAAAAAAAUGUAUAUUAUAUUUUUUCACUAUAGGUUGGAAUUCUCGGGUGCCAA`, “RBNS enrichment (R)” read 0.389.
`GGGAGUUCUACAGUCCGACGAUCCUAUUUGAGGAAAGUAUUAUUUGUCUUAAAGGGUAACAGCCUCAUGAAAUGACUUGAGGAUUCCAAUUUCUUAUUAGCUUAAGAUGUCACUUAAAAGCUGACAGCCCUCAUGGAAUUCUCGGGUGCCAA` — result for “RBNS enrichment (R)”: 0.525.
Under “RBNS enrichment (R)”, `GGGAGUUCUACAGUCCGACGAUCUUGGCAUGAAAUUUUCCAAGCAAACCUCAUUAAACAUCUGUUGUUUGUUAAAGAUGUUCCACUGAAAGCAACGCAUGUUUCAAAGGCACGUCUUUCCGUUCGUUGGUUUUUGGAAUUCUCGGGUGCCAA` is recorded as 12.
For `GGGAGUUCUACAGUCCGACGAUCCUUCCGUUCUAGCCCAGUAUCCCACUUGGACCAGGUAGGCAGAUACUCAAUAAAUGCUUGUUCCAUCAAACAGUGUCUGCAGUGCUGGGUGGGGCCCCGUGAAAUGGCUAUGGAAUUCUCGGGUGCCAA`, “RBNS enrichment (R)” read 0.825.
Under “RBNS enrichment (R)”, `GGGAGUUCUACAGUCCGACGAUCUAACUCCUCAUUGUAAACAAACUGUGUAACUGCCCAAAGCAGCACUUAUAAAUCAGCCUAACAUAAGUCUCUCUGAUGUGUUUGUGAUUCUUUCAAAUCCCUAUGUGCCAUGGAAUUCUCGGGUGCCAA` is recorded as 0.727.

Series 2 — target: CCND2, cyclin fold, Cln2 fusion (human); method: yeast growth competition, sequencing; sample: yeast; notes: strong parent motif; baseline: not given; direction: higher = stronger binding
Starting sequence: INSM1 docking peptide (human); PKAIRKLHFEDEV; partner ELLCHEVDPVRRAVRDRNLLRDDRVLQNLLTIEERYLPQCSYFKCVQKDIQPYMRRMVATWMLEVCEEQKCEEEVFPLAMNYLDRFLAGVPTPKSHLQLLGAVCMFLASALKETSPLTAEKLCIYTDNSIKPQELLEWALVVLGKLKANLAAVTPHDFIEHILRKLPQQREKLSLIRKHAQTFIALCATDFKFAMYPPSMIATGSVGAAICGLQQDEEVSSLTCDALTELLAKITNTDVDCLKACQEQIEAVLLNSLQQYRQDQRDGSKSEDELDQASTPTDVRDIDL
Under “normalised enrichment score”, `A3V` is recorded as 0.957.
`E10I`: “normalised enrichment score” 0.812.
`E10F` — result for “normalised enrichment score”: 1.37.
`H8L`: “normalised enrichment score” 2.88.
`L7C` — result for “normalised enrichment score”: 0.481.
Under “normalised enrichment score”, `H8C` is recorded as 3.44.

Series 3 — method: protein-binding microarray; molecule type: double-stranded DNA, one strand shown; sample: in vitro; concentration: 250 nM; notes: 60-bp whole probe; added: salmon DNA 0.4 mg/ml; baseline: random background probes; direction: higher = stronger binding; constant ends, left off below: GCCTAGCAC … GTCTTGATTCGCTTGACGCTGCTG
Target: Interferon regulatory factor 5, full length, phosphomimetic (IRF5, Homo sapiens, UniProt Q13568-2, residues 1-514, K96S/S451D/S453D/S456D/S462D)
For `TCACTTTACACACATCATCTTGTGCTA`, the log fluorescence was 1.17 z-score.
`GACGGTCACGGTCTCGGGACGTGCTAG` gave a log fluorescence of -0.359 z-score.
`TTAGGACTGGCCTATCGGTTAGTGCTA` has a log fluorescence of 1.44 z-score.
With `TCATATATGTATATATGACTGTGCTAG` the log fluorescence was 0.539 z-score.
For `TTAGGACTGGGTATAGGTTAGTGCTAG`, the log fluorescence was -0.465 z-score.
`GACCATCTCAGTTTCGAGACGTGCTAG` has a log fluorescence of 4.92 z-score.
`GTAGGACTGGGACTGGGTTAGTGCTAG` gave a log fluorescence of -0.743 z-score.

Single results of other studies
The fold induction of `PhoQ, residues 284 288 289 292 302 303 SSLVEF` is reported as 1.05 (PhoP, residues 12 14 15 18 19 NIMAP (Escherichia coli, UniProt P23836); Sort-seq, measured: YFP reporter; E. coli; PhoQ-PhoP variant library, added: 10 µM Mg2+; baseline: high Mg2+ state, higher = stronger signaling).

For quick reference, copied from above (series 3):
With `TCATATATGTATATATGACTGTGCTAG` the log fluorescence was 0.539 z-score.
